Published values collected from several papers.
A part holds a random share of what one study measured. “And” joins repeats or separate records; there may be more than shown.

Series 1
Target: RING finger protein unkempt homolog, zinc fingers 1-6, SBP tag (UNK, Homo sapiens, UniProt Q9C0B0, residues 30-357)
Chain of UniProt Q9C0B0 (30-357, looked up): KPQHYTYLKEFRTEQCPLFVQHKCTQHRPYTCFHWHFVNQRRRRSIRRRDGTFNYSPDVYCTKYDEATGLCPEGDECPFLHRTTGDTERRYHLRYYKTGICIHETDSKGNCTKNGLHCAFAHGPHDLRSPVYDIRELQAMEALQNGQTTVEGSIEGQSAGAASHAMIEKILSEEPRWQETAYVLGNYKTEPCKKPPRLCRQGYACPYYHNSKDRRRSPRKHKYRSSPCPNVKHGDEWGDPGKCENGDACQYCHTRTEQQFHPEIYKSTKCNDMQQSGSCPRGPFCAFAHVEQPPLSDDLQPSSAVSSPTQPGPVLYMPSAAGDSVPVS
Technique: RNA Bind-n-Seq
Molecule type: RNA
Sample: in vitro
Concentration: 100 nM
Notes: RNA with constant flanks, vertebrate orthologous sites, ends assumed
Relative to: input RNA pool
Reading: higher = stronger binding
All sequences stand within: GGGAGUUCUACAGUCCGACGAUC … CAACAGAGGAUUGAGCAUCA
| Sequence | bound/input enrichment [ratio] |
| --- | --- |
| ACGCUUUGACGUCAAGUUCAACAUCGCCUCGUGACCUCAGCCGCGGCCAGCGCUCACUUUGACACCGACACAAUGUAGAGAGAAUAAAAGAGUUGAGAUAAACACCACUAGUCUUUGAAC | 0.28 |
| UCCGAGCACUUUGAUAAAAAGCGUGGACUGGUUGCUUGUAUUUUCCUUAUUCUUUUUAAUUAGUUUUAUUAUGUAUGCUACCGUUCGAACUGAGAGUAUUCGGUGGCUAAUUCCAGGACA | 6.78 |
| UACUAGAGUCCUACCAGCCUGCCGGCCCCUCGUCUGUGCACAGCUUCCAACGUUACCGUCUAGCUAGAUUUUUAUUUAAAAUAUGAAAAACUGCUUUUCCCAAGACGUUUUUUAAAAACA | 0.609 |
| AUCUCUCAGUGACAGCAUUCCAUCUGUAGCUGACUCCCACUCAAGUCAUUUCUCCGAAUUUAGUUGCUCUGACUUGGAAAGCAUGAAAACUUCCUGUAGCCAUGGCUCCAAUGAUUAUCA | 0.538 |
| GUUGGGCCAUGACCCCUAUAGAUUAGGUCAUGAUGCUUACAGGUUAGGACAGGACCCUUAUAGAUUAGGCCAUGAUCCCUACAGACUAACUCCUGAUCCCUAUAGGAUGUCACCUAGACC | 0.967 |
| UCCAUGGCUGCUUUGUAUUACCUCAGUGAGUUACAGCCCCCCUUGGCAUUUAGUUGGUACUAGAGCCAGUCAUCCUUAACAAAUCUUUUCACAUUUUAUUUCUUUCACACAUAGUCAUCU | 3.87 |
| AUCCCUCAGUGACAGUAUGCCAUCUGUAGCAGAUUCCCACUCUAGUCAUUUUUCUGAAUUUAGUUGUUCUGACCUAGAAAGCAUGAAAACUUCUUGUAGUCAUGGUUCCAGUGAUUAUCA | 3.32 |
| UGAGGGAGAGAUUUCUGUGCUUUCUCAUAUUUAAUUUGCUGUUUUUAAGAUAUUCCAACCUAGAGUUUUCGAUGGAACUGAUAUAUUGACAGUUCUCACCGAAGUCCUUUUAUAAAGAAU | 0.834 |

Series 2
Target: Ras GTPase-activating protein-binding protein 1, RRM domain (G3BP1, Homo sapiens, UniProt Q13283)
Chain of UniProt Q13283 (whole entry, looked up): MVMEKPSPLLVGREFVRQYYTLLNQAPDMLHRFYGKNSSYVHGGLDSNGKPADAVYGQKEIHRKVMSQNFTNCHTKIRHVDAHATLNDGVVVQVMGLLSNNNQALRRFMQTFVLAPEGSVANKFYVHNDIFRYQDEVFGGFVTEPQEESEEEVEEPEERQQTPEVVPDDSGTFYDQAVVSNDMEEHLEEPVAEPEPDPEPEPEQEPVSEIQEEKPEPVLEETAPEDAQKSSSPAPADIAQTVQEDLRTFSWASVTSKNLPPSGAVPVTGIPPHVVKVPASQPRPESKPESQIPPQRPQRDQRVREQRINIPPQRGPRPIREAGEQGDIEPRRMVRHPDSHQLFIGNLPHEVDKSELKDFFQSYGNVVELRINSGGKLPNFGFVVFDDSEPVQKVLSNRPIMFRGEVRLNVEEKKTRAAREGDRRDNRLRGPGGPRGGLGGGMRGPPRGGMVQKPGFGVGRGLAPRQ
Technique: RNA Bind-n-Seq
Molecule type: RNA
Sample: in vitro
Concentration: 1 µM
Notes: whole 134-nt RNA, ends assumed
With: 150 mM KCl
Relative to: input library
Reading: higher = stronger binding
All sequences stand within: GGGAGUUCUACAGUCCGACGAUC … UGGAAUUCUCGGGUGUCAAGG
| Sequence | log2 enrichment |
| --- | --- |
| GUCCUGUGCUACACAUCGUAUGUACCGAAUCAAACCCCCAAAUUUUUUUAAACCCAAAAAAGUAUUAUGUUACGCCGUUCGGAUCUGCAC | -0.798 |
| UCAUGGCUAUCAUUAGCCACAGGUACUGCUGAUUAUAAGGCCAGUAAAAUUUUAGUACCUGGAGGUUUGACUCUAAUUUUUGCACUGAUG | -0.357 |
| UAACUUUAGAGGAGGAUCUGAUGGAUAUGGCAGUGGACGUGGAUUUGGGGAUGUCUAUAAUGGGUAUGGAGGAGGACCUGGAGGUGGCAA | -0.249 |
| UCAUGUGGAUGAAGCAGAAAAAGAAGCUCAGAAGAAGCCAGCUGAAUCUCAAAAAAUAGAGCGUGAAGAUGCCCUGGCUUUUAAUUCAGC | -0.269 |
| CUCAAGUCCUGUGCUACACAUCGUAUGUACCGAAUCGGAAAAAGGUGGUUUGGAAAGUAUUAUGUUACGCCGUUCGGAUCUGCACUUCCA | -0.127 |
| CUGUGCUACACAUCGUAUGUACCGAAUCGGAAAAAAAGGGAAAAAAAGGGAAAAAAAGGGGAAAGUAUUAUGUUACGCCGUUCGGAUCUG | 0.0414 |
| UGGCCCUGGUGGCAUGCGGGGAGGAAGAGGUGGCCUCAUGGAUCGUGGUGGUCCCGGUGGAAUGUUCAGAGGCGGCCGUGGUGGAGACAG | 1.5 |
| CAAAAUACCAAGGGAUUUAUAUGAGGAUGAGUUGGUGCCCCUUUUUGAGAAGGCCGGACCCAUUUGGGAUCUACGUCUUAUGAUGGAUCC | -0.312 |
| CUGUGCUACACAUCGUAUGUACCGAAUCGGGGAAAGGGGAAAAAAAGGGGAAAAAAAGGGGAAAGUAUUAUGUUACGCCGUUCGGAUCUG | 0.486 |

Series 3
Target: Centromere-binding protein 1, full length, His-tagged (CBF1, Saccharomyces cerevisiae, UniProt P17106, residues 1-351)
Chain of UniProt P17106 (whole entry, looked up): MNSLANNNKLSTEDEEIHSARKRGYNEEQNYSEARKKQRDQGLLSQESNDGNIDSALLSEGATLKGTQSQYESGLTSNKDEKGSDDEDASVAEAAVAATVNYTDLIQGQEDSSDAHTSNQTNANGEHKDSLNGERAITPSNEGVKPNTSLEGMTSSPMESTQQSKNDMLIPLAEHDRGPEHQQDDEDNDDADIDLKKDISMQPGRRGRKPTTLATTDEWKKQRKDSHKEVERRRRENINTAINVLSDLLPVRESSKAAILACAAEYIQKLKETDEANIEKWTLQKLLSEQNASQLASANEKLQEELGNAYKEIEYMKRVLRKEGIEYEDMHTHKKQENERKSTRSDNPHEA
Technique: competition protein-binding microarray
Molecule type: double-stranded DNA, one strand shown
Sample: in vitro
Concentration: 2 µM
Notes: whole 60-bp probe, lowest competitor level
With: Pho4 competitor, 0.05 µM
Reading: higher = stronger binding
All sequences stand within: … GTCTTGATTCGCTTGACGCTGCTG
| Sequence | fluorescence intensity [a.u.] |
| --- | --- |
| TAAGGGAATGTCCATCACGTGAAGGAAAATTCAAGT | 3560 |
| TGCGCAACAACTTGAACAGTGGGTGTATGTCTAGAA | 69.4 |
| CTTGAGCGAAGCCGTCACATGGACCGGGAAATGGGT | 391 |
| AGGCATACCCTTGTTCATGTGGGGGCATTCAATGGG | 82.3 |
| CTGTGTTAACTTCAACACGTGAGGAATTTGCTTCAT | 1840 |
| TTAAGTCTATGCCAGCACATGTGGTGCTCAGTGCTG | 118 |
| AAATTACTAAGTTGAAGCGTGGGTGACGCCGTATGA | 80.4 |
| GTCTTGTCTCATTGTGGAGTGGGTGTCCCCACTTCA | 82.7 |
| GCCAAAGCGCAAGGCCGCGTGGACCACCAGGACGAA | 52.6 |
| GCCAGGGATCCTCACCACGTCGCCGTCCTGTAATCC | 57.4 |
| CTAACGAAGGTTTGCCCCGTGGGTGACAAGCCAAGT | 77.4 |
| CAGTGGAATCTTCATCACATGCTCGAACCGGCTTGA | 667 |
| CGCAATTTCCTTTATCGAACATATTGGGTAAACAAC | 69.8 |
| TAGTCAAGTAGCCATCACGTGAGGATAATATATTAC | 5600 |
| AGTCTGTGCTAGTCCCACGTGTGAATGCCAAGGTTG | 488 |
| TTAATGAGTAATCCGCACGTTTTTAATCTAGCTAAT | 126 |

Other studies, line by line
| Substance | target | assay | test system | setting | scale | measurement | result |
| --- | --- | --- | --- | --- | --- | --- | --- |
| PhoQ, residues 284 288 289 292 302 303 SACGEM | PhoP, residues 12 14 15 18 19 LWHSL (Escherichia coli, UniProt P23836) | Sort-seq, item: YFP reporter | E. coli | PhoQ-PhoP variant library, with: 10 µM Mg2+ | relative to: high Mg2+ state, higher = stronger signaling | fold induction | 11.3 and 15.5 |

Excerpt of the above (other studies, line by line):
| Substance | target | assay | test system | setting | scale | measurement | result |
| --- | --- | --- | --- | --- | --- | --- | --- |
| PhoQ, residues 284 288 289 292 302 303 SACGEM | PhoP, residues 12 14 15 18 19 LWHSL (Escherichia coli, UniProt P23836) | Sort-seq, item: YFP reporter | E. coli | PhoQ-PhoP variant library, with: 10 µM Mg2+ | relative to: high Mg2+ state, higher = stronger signaling | fold induction | 11.3 and 15.5 |
